Published values of several laboratories.
Every numbered part comes from another study and shows a few of its results, in no order.

Block 1
Target: Ras GTPase-activating protein-binding protein 1, RRM domain (G3BP1, Homo sapiens, UniProt Q13283)
UniProt Q13283, sequence (whole entry, looked up): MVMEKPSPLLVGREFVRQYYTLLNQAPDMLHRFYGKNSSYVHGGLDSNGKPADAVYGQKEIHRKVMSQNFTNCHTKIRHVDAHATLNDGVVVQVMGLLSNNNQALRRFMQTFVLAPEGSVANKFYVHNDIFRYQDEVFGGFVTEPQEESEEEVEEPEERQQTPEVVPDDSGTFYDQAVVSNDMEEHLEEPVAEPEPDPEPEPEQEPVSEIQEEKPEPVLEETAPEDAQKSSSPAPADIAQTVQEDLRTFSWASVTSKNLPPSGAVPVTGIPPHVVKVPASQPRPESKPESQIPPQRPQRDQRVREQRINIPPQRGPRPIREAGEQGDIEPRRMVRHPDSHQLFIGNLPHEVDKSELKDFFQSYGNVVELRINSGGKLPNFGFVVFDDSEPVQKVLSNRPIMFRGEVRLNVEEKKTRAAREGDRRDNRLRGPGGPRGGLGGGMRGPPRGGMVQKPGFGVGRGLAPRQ
Method: RNA Bind-n-Seq
Molecule type: RNA
Medium: in vitro
Tested at: 1 µM
Setting: whole 134-nt RNA, ends assumed
With: 150 mM KCl
Baseline: input library
Direction: higher = stronger binding
Endpoint: log2 enrichment
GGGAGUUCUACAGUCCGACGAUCCCUGUGCUACACAUCGUAUGUACCGAAUCGGGGUUUUUUUGGGUUUUUUUGGUUUUUUUGGAAAGUAUUAUGUUACGCCGUUCGGAUCUGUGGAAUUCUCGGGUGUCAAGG: -0.169
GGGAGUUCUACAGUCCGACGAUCCAAGUCCUGUGCUACACAUCGUAUGUACCGAAUCGGAGGUUUUUUUGGUUUUUGGAAAGUAUUAUGUUACGCCGUUCGGAUCUGCACUUCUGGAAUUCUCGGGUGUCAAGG: -0.316
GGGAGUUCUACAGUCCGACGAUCCUCAAGUCCUGUGCUACACAUCGUAUGUACCGAAUCGGUUUGGUGGAAAAAGGAAAGUAUUAUGUUACGCCGUUCGGAUCUGCACUUCCAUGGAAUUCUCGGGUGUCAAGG: -0.235
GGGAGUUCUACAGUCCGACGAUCCCUGUGCUACACAUCGUAUGUACCGAAUCGGGGAAAGGGGAAAAAAAGGGGAAAAAGGGGAAAGUAUUAUGUUACGCCGUUCGGAUCUGCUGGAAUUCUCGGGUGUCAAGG: 0.591
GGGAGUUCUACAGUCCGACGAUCCCUCAAGUCCUGUGCUACACAUCGUAUGUACCGAAUCGGCCGGCCGGCCGGGAAAGUAUUAUGUUACGCCGUUCGGAUCUGCACUUCCAGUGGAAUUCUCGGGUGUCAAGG: -0.646
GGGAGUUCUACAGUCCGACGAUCCUCAAGUCCUGUGCUACACAUCGUAUGUACCGAAUCGGCCGGGGCCGGGCCGGAAAGUAUUAUGUUACGCCGUUCGGAUCUGCACUUCCAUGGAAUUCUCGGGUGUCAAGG: -0.492
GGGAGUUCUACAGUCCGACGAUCUGGCCCUGGUGGCAUGCGGGGAGGCAGAGGUGGCCUCAUGGAUCGUGGUGGUCCCGGUGGAAUGUUCAGAGGUGGCCGUGGUGGAGACAGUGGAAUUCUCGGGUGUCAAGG: 0.903
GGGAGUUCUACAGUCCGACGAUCCCUCAAGUCCUGUGCUACACAUCGUAUGUACCGAAUCGGAAGGAAGGGAAGGGAAAGUAUUAUGUUACGCCGUUCGGAUCUGCACUUCCAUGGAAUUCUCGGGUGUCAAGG: -0.279

Block 2
Target: Histone acetyltransferase KAT6A, both winged helices, GST fusion (KAT6A, Homo sapiens, UniProt Q92794, residues 1-181)
Method: protein binding microarray
Molecule type: double-stranded DNA, one strand shown
Medium: in vitro
Tested at: not given
Setting: 8-mer, flanks averaged, mean of 2 arrays, mostly near background
Baseline: not given
Direction: higher = stronger binding
Endpoint: E-score
Target sequence (chain): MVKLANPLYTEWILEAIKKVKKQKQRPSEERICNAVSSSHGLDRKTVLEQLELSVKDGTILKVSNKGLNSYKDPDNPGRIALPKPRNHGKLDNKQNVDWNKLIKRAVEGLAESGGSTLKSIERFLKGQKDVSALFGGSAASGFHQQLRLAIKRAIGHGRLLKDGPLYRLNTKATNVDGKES
ACTTGCCT: -0.179
GTAGATGA: 0.00061
CATCGCGC: 0.317
AAGTAGGA: -0.217
ATGCGAAA: 0.00605
ACTGGCTC: -0.164

Further values, each from its own experiment
LLKRLQDVVSERA — enrichment score (Saccharomyces cerevisiae; peptide binding, yeast competitive growth sequencing; peptide, cyclin F-Cln2 fusion; library 2; direction not given): -1.04
PhoQ, residues 284 288 289 292 302 303 SVTLVV — fold induction (PhoP, residues 12 14 15 18 19 LHHSG (Escherichia coli, UniProt P23836); Sort-seq, refers to: YFP reporter; E. coli; PhoQ-PhoP variant library, with: 10 µM Mg2+; baseline: high Mg2+ state, higher = stronger signaling): 6.38
ASPLKKLFTSTGL — enrichment score (Cln2 (Saccharomyces cerevisiae); peptide binding, competitive growth sequencing; peptide, Saccharomyces cerevisiae, unfused Cln2 strain; mutational scanning library 1; direction not given): -0.953

A few entries again (block 2):
AAGTAGGA: -0.217
ACTGGCTC: -0.164
